Assay results pooled from the literature.
Compare with care: the assays were run in different laboratories.
Target: Interferon-induced, double-stranded RNA-activated protein kinase (EIF2AK2, Homo sapiens, UniProt P19525)
UniProt P19525, sequence (whole entry, looked up): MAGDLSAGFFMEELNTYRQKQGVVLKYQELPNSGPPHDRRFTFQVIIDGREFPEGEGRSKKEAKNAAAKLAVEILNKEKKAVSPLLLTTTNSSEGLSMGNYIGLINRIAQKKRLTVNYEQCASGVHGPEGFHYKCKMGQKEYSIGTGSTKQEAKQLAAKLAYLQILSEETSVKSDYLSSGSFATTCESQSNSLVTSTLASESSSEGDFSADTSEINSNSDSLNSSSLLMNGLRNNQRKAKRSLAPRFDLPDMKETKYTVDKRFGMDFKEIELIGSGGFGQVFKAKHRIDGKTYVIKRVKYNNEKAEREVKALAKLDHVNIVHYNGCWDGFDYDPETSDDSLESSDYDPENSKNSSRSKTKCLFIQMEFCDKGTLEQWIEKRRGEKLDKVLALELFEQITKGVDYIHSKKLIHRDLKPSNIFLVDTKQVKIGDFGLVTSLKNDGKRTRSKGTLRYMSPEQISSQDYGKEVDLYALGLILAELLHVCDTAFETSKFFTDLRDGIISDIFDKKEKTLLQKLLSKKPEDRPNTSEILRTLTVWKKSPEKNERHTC

Structure (SMILES) | test | system | conditions | scale | measurement | result
C=CC(=O)N1CCC(C(=O)NCC(=O)N2CCN(c3nc(-c4cnc(N)nc4C(F)F)nc(N4CCOCC4)n3)CC2)CC1 | KINOMEscan |  | 1 µM |  | remaining binding | 100%
CNc1ncc2c(/C=C/C(=O)N3CCC(OC)CC3)nn(Cc3cccc(C(F)(F)F)c3)c2n1 | kinase activity, inhibitor |  | 1 µM | baseline: untreated control | remaining activity | 118%
C=CC(=O)N1CCC[C@@H](n2nc(-c3ccc(Oc4ccccc4)cc3)c3c(N)ncnc32)C1 |  |  | 0.1 µM |  | remaining activity | 166%
C=CC(=O)N1CCC(COCC(=O)N2CCN(c3nc(-c4cnc(N)nc4C(F)F)nc(N4CCOC[C@@H]4C)n3)CC2)CC1 | KINOMEscan |  | 1 µM | baseline: DMSO control | remaining binding | 100%
O=C(NC1CCC1)c1ccc2nc(-c3cccc(NS(=O)(=O)NCCN4CCCCC4)c3)cn2c1 | enzyme activity |  | 10 µM |  | remaining activity | 100%
C[C@@H](c1ccc(-n2cnc3c(N)ncnc32)cc1)N1CCc2nn(C)c(Cc3ccccc3)c2C1=O | KINOMEscan |  | 0.1 µM | baseline: DMSO control | remaining binding | 90%
CCN1CCN(Cc2ccc(NC(=O)c3ccc(C)c(/C=C/c4cnc5[nH]ccc5c4OC)c3)cc2C(F)(F)F)CC1 |  | A-375 | concentration not given |  | inhibition | -12%
C1=C/COCc2cc(ccc2OCCN2CCCC2)Nc2nccc(n2)-c2cccc(c2)COC/1 |  |  | concentration not given, kinase construct PRKR | baseline: control | binding | 90%

For quick reference, copied from above:
Structure (SMILES) | test | system | conditions | scale | measurement | result
C=CC(=O)N1CCC[C@@H](n2nc(-c3ccc(Oc4ccccc4)cc3)c3c(N)ncnc32)C1 |  |  | 0.1 µM |  | remaining activity | 166%
